# Results gathered from unrelated publications.
# Compare with care: the assays were run in different laboratories. Several values in a cell are separate wells, animals, samples, runs or records. ± gives the spread as reported.
SMILES,target or system,assay,test system,setting,scale,endpoint,value
COCC1CN(C2CCN(c3cc(OC)c(Nc4ncc(Br)c(Nc5ccc6c(c5P(C)(C)=O)OCCO6)n4)cc3C)CC2)C1,,,"EGFR-mutant NSCLC patients, plasma","oral, 10 mg single dose, geometric mean",,AUC(0-t),0.521 µg·h/mL
Cc1ccc(OCC(=O)N(Cc2cccs2)c2ccn[nH]2)cc1,,,Sprague-Dawley rat liver microsomes,"10 µM, 60 min, NADPH present",,remaining compound,1%
CCCCN1C(=O)c2cccc3c(NCCCCCN4CCOCC4)ccc(c23)C1=O,,,DMF,,,Stokes shift,86 nm
Nc1ncnc2[nH]c(/C=C/c3ccc([N+](=O)[O-])cc3)nc12,,HPLC,solution,after 1 h light exposure,,purity,100%
COC1CN([C@H]2CC[C@H]([C@@]3(C)Oc4c(Cl)cc(C(=O)NCc5c(SC)cc(C)[nH]c5=O)c(C)c4O3)CC2)C1,,"RNA-seq, measured: ARHGEF17","human, whole blood","dose not given, 24 h",relative to: pretreatment baseline,log2 fold change,2.04
CC1(C)C(=CC=C2CCCC(C=CC3=[N+](CCC[N+](C)(C)C)c4ccc(S(=O)(=O)O)cc4C3(C)C)=C2SCCOCCOCCC(=O)O)N(CCC[N+](C)(C)C)c2ccc(S(=O)(=O)O)cc21,,,DMSO,,,Stokes shift,28 nm
C=CC(=O)Nc1cc(Nc2nccc(-c3c[nH]c4ccccc34)n2)c(OC)cc1N(C)CCN(C)C,,,human plasma,"72 h, storage stability, medium QC sample",,recovery,51.6%
CCc1cnc(NC(=O)c2cc(S(=O)(=O)N3CCOCC3)ccc2N(C)C2CCCC2)s1,,,mouse,"10 mg/kg, 3 doses",,serum globulin,2.4 g/dL
COC(=O)C(C)n1nc(Cn2cc3cc(OCC[18F])c(Cl)cc3n2)c2ccccc2c1=O (racemic),,PET,C57BL/6 mouse male,40 min,,brain uptake,4.1 %ID/g
CCCCN1C(=O)c2cccc3c(NCCCCCCCCCCN4CCOCC4)ccc(c23)C1=O,,,DMSO,,,fluorescence quantum yield,1.03
O=C(Nc1cnccc1-c1ccc([18F])nc1)c1ccnc(NC(=O)C2CC2)c1,,,"FVB/NJ mice (both sexes), heart","intravenous, dose not given, 120 min",,SUV,0.108
O=C1C2CC3CC1CC(C(=O)N1CCN(c4ccc([N+](=O)[O-])c5ncccc45)CC1)(C3)C2,Escherichia coli,Ames test,WP2 uvrA pKM101,"0.05 µg/well, without S9",relative to: vehicle,revertant fold increase,1
COc1ccc2c(c1)CCn1c[n+]3c(c1-2)-c1ccc(OC)cc1CC3,,,"female NSG mice, blood","6 mg/kg, day 7, 5 days per week",,Hematocrit,41.3 ± 2.33%
CCCCN1C(=O)c2cccc3c(NCCCN4CCOCC4)ccc(c23)C1=O,,,dichloromethane,,,Stokes shift,74 nm
CC(C)(O)c1ncc([S@](N)(=O)=NC(=O)Nc2c3c(cc4c2CCC4)CCC3)s1,,measured: any adverse event,healthy human volunteers,"oral, 50 mg twice daily, 14 days, enteric-coated tablet",,subjects with adverse events,86%
N#Cc1cc(NC(=O)C2c3ccccc3C(=O)N(CC(F)(F)F)C2c2ccc[n+]([O-])c2)ccc1F (stereo not shown),,,human,"1200 mg, unit not given",relative to: other 6 cohorts,apparent oral clearance increase,1.5
C=C(NC(=O)c1csc(-c2nc3c(cc2O)-c2nc(cs2)C(=O)NC(C(C)O)C(=O)NC(=C(C)OC)c2nc(cs2)C(=O)NC2c4nc(cs4)C(=O)NC(COC(=O)c4c5c6c(cccc6n4O)COC(=O)C(OC4CC(C)(O)C(N(C)C)C(C)O4)C2OC5)c2nc-3cs2)n1)C(N)=O (stereo not shown),,,"male cynomolgus monkey, plasma","intravenous, 1 mg/kg, single dose, infusion",,Tmax,1.8 min
C/C(N)=N/C(=N\S(=O)(=O)c1ccc(C(F)(F)F)cc1)N1C[C@H](c2ccccc2)C(c2ccc(Cl)cc2)=N1,,,"male beagle dog, plasma","intravenous, 2 mg/kg",,Vd,2 L/kg
O=C1c2sc(-c3ccc(N4CCC(CO)CC4)nc3F)nc2CCN1c1cccnc1,,,"CD1 mouse, plasma","i.v., dose not given, 1 h",,concentration,1.55 ng/mL and 1.25 ng/mL and 1.38 ng/mL
CN(O)C(=O)CCC(=O)NCCCN(CCCCN(CCCNC(=O)CCC(=O)N(C)O)C(=O)CCC(=O)N(C)O)C(=O)CCC(=O)N(C)O.[89Zr],,radio-TLC,aqueous buffer,"7 d, pH 7.2, 37 °C, 89Zr-labelled complex, with: NiCl2 10-fold excess",,intact complex,99.5 ± 0.5%
Cc1cc(C(=O)NC(C)(C)CO)cc(C)n1,,LC-MS metabolite profiling,"Sprague-Dawley rat, both sexes, plasma","oral, 100 mg/kg of parent drug, 8 (unit not given)",higher = more metabolite,plasma peak area,88800 a.u.
CC(=O)N[C@@H](CCCCN)C(=O)N1CCC[C@H]1C(=O)N[C@H](C(=O)N[C@@H](Cc1ccccc1)C(=O)N[C@@H](CCC(N)=O)C(=O)N[C@@H](Cc1ccccc1)C(=O)N[C@@H](CC(C)C)C(=O)N[C@@H](Cc1ccccc1)C(=O)N[C@@H](Cc1c[nH]cn1)C(=O)N[C@@H](CCC(=O)O)C(N)=O)C(C)C,,AFM,hydrogel,pH 7.4,,nanofiber diameter,8.9 ± 0.8 nm
O=C([O-])CN1CCN(CC(=O)[O-])CCN(C(CO)C(O)CO)CCN(CC(=O)[O-])CC1.[Dy+3] (stereo not shown),,,"cynomolgus monkey, skin","dose not given, day 58, PK group",,lanthanide tissue concentration,0.034 ± 0.015 nmol/g
CCCCN1C(=O)c2cccc3c(NCCCCN4CCOCC4)ccc(c23)C1=O,,,chloroform,,,Stokes shift,69 nm
CCCC[C@H](NC(=O)CNC(=O)CNC(=O)[C@H](CCCCNC(=O)[C@H](CC(=O)O)NC(=O)C(C)c1ccc(CC(C)C)cc1)NC(=O)CN1CCN(CC(=O)O)CCN(CC(=O)O)CCN(CC(=O)O)CC1)C(=O)N[C@H]1CC(=O)NCCCC[C@@H](C(N)=O)NC(=O)[C@H](Cc2c[nH]c3ccccc23)NC(=O)[C@H](CCCNC(=N)N)NC(=O)[C@@H](Cc2ccccc2)NC(=O)[C@H](Cc2c[nH]cn2)NC1=O (stereo partly shown) [lutetium-177 labelled],,,"C57 mice, tumour-bearing, tumor",2 h,,tissue uptake,24.1 ± 3.35 %ID/g
N#C[C@@H]1CC(F)(F)CN1C(=O)CNC(=O)c1ccnc2c(NC(=O)[C@@H](N)CCCCNC(=O)CCOCCOCCOCCOCCOCCOCCNC(=O)CN3CCN(CC(=O)[O-])CCN(CC(=O)[O-])CCN(CC(=O)[O-])CC3)cccc12.[177Lu+3],,,human serum,"1 h, 37 °C, 177Lu-labelled",,radiochemical stability,99.42 ± 0.5%
CN(Cc1cc(C2CC2)on1)C(=O)c1cccc(-c2ccc(F)cc2)c1,,,"male ICR/CD-1 mouse, liver microsomes","2 µM, 15 min, pH 7.5, with: 1-aminobenzotriazole 500 µM, preincubated 30 min",,remaining compound,82%
N#C[C@@H]1CC(F)(F)CN1C(=O)CNC(=O)c1ccnc2c(NC(=O)C(CCCCNC(=O)CCOCCOCCOCCOCCOCCOCCNC(=O)CN3CCN(CC(=O)[O-])CCN(CC(=O)[O-])CCN(CC(=O)[O-])CC3)NC(=O)CCCc3ccc(I)cc3)cccc12.[68Ga+3] (stereo partly shown),,,PBS,"120 min, 37 °C, 68Ga-labelled",,radiochemical stability,99.21 ± 0.7%
COc1ccc(OC(C)=O)cc1-c1c[nH]c2ncc(-c3cncc(C(=O)N(C)C)c3)cc12,,HPLC,acetonitrile/water/DMSO,"50 µM, 37 °C, DIPEA 20 eq, with: N-α-acetyl-lysine",,reactivity half-life,> 1440 min
N#C[C@@H]1CC(F)(F)CN1C(=O)CNC(=O)c1ccnc2c(NC(=O)CCOCCOCCOCCOCCOCCOCCNC(=O)[C@H](CCCCNC(=O)CN3CCN(CC(=O)[O-])CCN(CC(=O)[O-])CCN(CC(=O)[O-])CC3)NC(=O)CCCc3ccc(I)cc3)cccc12.[177Lu+3],,,human serum,"1 h, 37 °C, 177Lu-labelled",,radiochemical stability,99.08 ± 0.8%
O=C(Nc1cnccc1-c1ccc([18F])cc1)c1ccnc(NC(=O)C2CC2)c1,,ex vivo gamma counting,"GSK-3β transgenic mice, late-stage, lung","intravenous, 120 min",,mean SUV,0.27
[11CH3]N1CCC(NC(=O)c2cc(-c3c(O)cc(O)cc3Oc3ccc([N+](=O)[O-])cc3)on2)CC1,,,"healthy female Wistar rats, lungs","intravenous, 2 min",,standardized uptake value,1.8 ± 0.3 g/mL
Cc1c(-c2ccc(N3CCc4cccc(C(=O)Nc5nc6ccccc6s5)c4C3)nc2C(=O)O)cnn1CC12CC3CC(CC(C3)C1)C2,,,anaesthetised rat,"intravenous infusion, 30 mg/kg",relative to: baseline,platelet count,16.7%
CNc1cc(N)c(C(N)=O)c[n+]1C,,"substrate, measured: methylated product","rats, plasma","oral, 30 mg/kg, 1.50 h",,plasma concentration of product,0.198 µM and 0.205 µM
CC#CC(=O)N1CCC[C@H]1c1nc(-c2ccc(C(=O)Nc3ccccn3)cc2)c2c(N)nccn12,,,"mouse, TMD8 tumour-bearing, plasma","7.5 mg/kg twice daily, 12 h",,trough concentration,0.322 ng/mL
COc1cccc(OC)c1-c1cc(C(=O)NC2(C(=O)O)C3CC4CC(C3)CC2C4)nn1-c1ccc(C(=O)NCCNC(=O)[C@H](CCCCNC(=O)[C@H](CC(C)C)NC(=O)C2OC2C(=O)O)NC(=O)CN2CCN(CC(=O)[O-])CCN(CC(=O)[O-])CCN(CC(=O)[O-])CC2)cc1C(C)C.[177Lu+3] (mixture of isomers),,,"mouse HT-29 xenograft, large intestine","168 h post injection, biodistribution",,tissue uptake,0.19 %ID/g
CC(C)[C@H](NC(=O)[C@H](Cc1c[nH]c2ccccc12)NC(=O)[C@H](CCCNC(=N)N)NC(=O)[C@H](CCCNC(=N)N)NC(=O)[C@@H](NC(=O)[C@@H](NC(=O)[C@H](CCCNC(=N)N)NC(=O)[C@@H](NC(=O)[C@@H](NC(=O)[C@H](CCCNC(=N)N)NC(=O)[C@H](CCCNC(=N)N)NC(=O)[C@@H](NC(=O)[C@H](Cc1c[nH]c2ccccc12)NC(=O)[C@H](CCCNC(=N)N)NC(=O)[C@H](CCCNC(=N)N)NC(=O)[C@@H](NC(=O)[C@H](CCCNC(=N)N)NC(=O)[C@H](CCCNC(=N)N)NC(=O)[C@@H](NC(=O)[C@H](Cc1c[nH]c2ccccc12)NC(=O)[C@H](CCCNC(=N)N)NC(=O)[C@@H](N)CCCNC(=N)N)C(C)C)C(C)C)C(C)C)C(C)C)C(C)C)C(C)C)C(C)C)C(=O)N[C@@H](CCCNC(=N)N)C(=O)N[C@@H](CCCNC(=N)N)C(=O)O,,,"CD1 mouse, urine","intravenous, 15 mg/kg, 16 h, [14C]-labelled compound",,sodium excretion,< 22.9 µmol/day/g body weight
COc1cccc(OC)c1-c1cc(C(=O)NC2(C(=O)O)C3CC4CC(C3)CC2C4)nn1-c1ccc(C(=O)N(C)CCCN(C)CCCN(C)C(=O)[C@H](CCCCNC(=O)[C@H](CC(C)C)NC(=O)C2OC2C(=O)O)NC(=O)CN2CCN(CC(=O)[O-])CCN(CC(=O)[O-])CCN(CC(=O)[O-])CC2)cc1C(C)C.[177Lu+3] (mixture of isomers),,,"mouse, HT-29 xenograft, HT-29 tumour",4 h post injection,,tissue uptake,16.5 %ID/g
O=C(NS(=O)(=O)c1cccs1)c1cc2ccccc2n1Cc1ccc(Br)c2ccccc12,,,"KM mouse, chronic hyperuricaemia model","dose not given, day 16",,body weight,33.2 g and 31.2 g and 36.6 g and 38 g and 35.2 g and 30.2 g
CC[C@H](C)[C@H](NC(=O)[C@H](Cc1ccc(O)cc1)NC(=O)[C@@H](NC(=O)[C@H](CCCNC(=N)N)NC(=O)[C@@H](N)CC(=O)O)C(C)C)C(=O)N[C@@H](Cc1c[nH]cn1)C(=O)N1CCC[C@H]1C(=O)O,,LC-MS/MS,"Sprague-Dawley rat, both sexes, plasma","subcutaneous, 10 mg/kg/day, day 27, 0.75 h, 45 min",,plasma concentration,7.83 ng/mL
CCCCN1C(=O)c2cccc3c(NCCCCCCCCN4CCOCC4)ccc(c23)C1=O,,,dioxane,,,Stokes shift,88 nm
OCC1OC(n2cnc3c(NCc4ccc(Br)s4)ncnc32)C(O)C1O (stereo not shown),,equilibrium dialysis,mouse plasma,"5 µg/mL, 4 h, pH 7.4",,fraction unbound,0.066
CNc1cc(C)c(C(N)=O)cn1,,,"Han Wistar rats, male, plasma","oral, 30 mg/kg, 2.00 h",,plasma concentration,87.4 µM
O=C1c2sc(-c3ccc(N4CCC(F)C4)nc3F)nc2CCN1c1cccnc1 (stereo not shown),,,"CD1 mouse, plasma","i.v., dose not given, 0.25 h",,concentration,170 ng/mL and 142 ng/mL and 164 ng/mL
CCCCN1C(=O)c2cccc3c(NCCCCCCN4CCOCC4)ccc(c23)C1=O,,,dioxane,,,Stokes shift,85 nm
CCCC[C@H](OC(C)=O)c1ccccc1C(=O)O,,,"Sprague-Dawley rats, both sexes, whole blood","intravenous, 20 mg/kg single dose",,clearance,0.608 ± 0.0844 L/h/kg

# A few entries again:
SMILES,target or system,assay,test system,setting,scale,endpoint,value
CCCCN1C(=O)c2cccc3c(NCCCCCCCCCCN4CCOCC4)ccc(c23)C1=O,,,DMSO,,,fluorescence quantum yield,1.03
O=C(Nc1cnccc1-c1ccc([18F])nc1)c1ccnc(NC(=O)C2CC2)c1,,,"FVB/NJ mice (both sexes), heart","intravenous, dose not given, 120 min",,SUV,0.108
O=C1C2CC3CC1CC(C(=O)N1CCN(c4ccc([N+](=O)[O-])c5ncccc45)CC1)(C3)C2,Escherichia coli,Ames test,WP2 uvrA pKM101,"0.05 µg/well, without S9",relative to: vehicle,revertant fold increase,1
COc1ccc2c(c1)CCn1c[n+]3c(c1-2)-c1ccc(OC)cc1CC3,,,"female NSG mice, blood","6 mg/kg, day 7, 5 days per week",,Hematocrit,41.3 ± 2.33%
